{"data": "Results of several laboratories", "note": "Every numbered part comes from another study and shows a few of its results, in no order. Changes are numbered by the printed parent chain."}
{"data": "Sample 1", "target": "Ras GTPase-activating protein-binding protein 1, RRM domain (G3BP1, Homo sapiens, UniProt Q13283)", "method": "RNA Bind-n-Seq", "form": "RNA", "sample": "in vitro", "tested at": "1 µM", "setting": "whole 134-nt RNA, ends assumed", "with": "150 mM KCl", "baseline": "input library", "reading": "higher = stronger binding", "shared flanks, not repeated": "GGGAGUUCUACAGUCCGACGAUC … UGGAAUUCUCGGGUGUCAAGG", "chain of UniProt Q13283 (whole entry, looked up)": "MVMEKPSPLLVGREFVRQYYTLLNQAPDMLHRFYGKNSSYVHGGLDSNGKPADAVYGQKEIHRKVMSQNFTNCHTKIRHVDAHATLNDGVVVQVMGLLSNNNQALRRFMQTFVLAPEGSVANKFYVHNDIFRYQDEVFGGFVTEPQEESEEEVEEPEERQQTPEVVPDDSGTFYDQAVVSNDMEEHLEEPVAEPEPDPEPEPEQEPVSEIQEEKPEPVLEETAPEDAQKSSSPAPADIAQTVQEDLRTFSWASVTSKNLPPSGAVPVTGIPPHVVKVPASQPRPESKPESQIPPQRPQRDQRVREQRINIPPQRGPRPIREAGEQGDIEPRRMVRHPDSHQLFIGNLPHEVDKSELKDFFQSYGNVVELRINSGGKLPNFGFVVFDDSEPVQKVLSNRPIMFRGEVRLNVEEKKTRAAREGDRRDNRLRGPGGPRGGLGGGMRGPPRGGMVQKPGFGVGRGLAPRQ"}
{"Oligonucleotide": "CCCAUGCAGGUGGGCAUCUUUGGGAAGUGGGGCAAGGGGGGGAUAGGGAGGGGGGUAACACUUUGGGAACAGGUGGUCCCAGGUCGUUUC", "log2 enrichment": -0.558}
{"Oligonucleotide": "UCCUGUGCUACACAUCGUAUGUACCGAAUCGGGAAAAAAGGAAAAAAGGAAAAAAGGGGAAAGUAUUAUGUUACGCCGUUCGGAUCUGCA", "log2 enrichment": -0.0673}
{"Oligonucleotide": "CAAGUCCUGUGCUACACAUCGUAUGUACCGAAUCGGGAAAGGGGAAAGGAAAGGGGAAAGUAUUAUGUUACGCCGUUCGGAUCUGCACUU", "log2 enrichment": 0.263}
{"Oligonucleotide": "UGGCCCUGGUGGCAUGCGGGGAGGAAGAGGUGGCCUCAUGGAUCGUGGUGGUUCCGGUGGAAUGUUCAGAGGUGGCCGUGGUGGAGACAG", "log2 enrichment": 0.255}
{"Oligonucleotide": "UCCUCAAGUCCUGUGCUACACAUCGUAUGUACCGAAUCGGUGGUGGGUGGGAAAGUAUUAUGUUACGCCGUUCGGAUCUGCACUUCCAGC", "log2 enrichment": -0.0523}
{"Oligonucleotide": "CUGUGCUACACAUCGUAUGUACCGAAUCGGGAAAAAAAGGAAAAAAAGGGAAAAAAAGGGGAAAGUAUUAUGUUACGCCGUUCGGAUCUG", "log2 enrichment": 0.0998}
{"Oligonucleotide": "CACAGACAACACGCACCCACACAGACACAGAGGGAAGGGGUUGGGAUGGGGACAGGGUGCACAGCAGGGCGGGGUAGGCCCCCAGCCCCU", "log2 enrichment": -0.529}
{"Oligonucleotide": "GUCCUGUGCUACACAUCGUAUGUACCGAAUCGGGGUUUUUGGUUUUUGGUUUUUGGGGAAAGUAUUAUGUUACGCCGUUCGGAUCUGCAC", "log2 enrichment": -0.231}
{"data": "Sample 2", "target": "Interferon regulatory factor 7, full length, phosphomimetic (IRF7, Homo sapiens, UniProt Q92985, residues 1-503, S471D/S472D/S475D/S476D/S477D/S483D/S484D/S487D)", "method": "protein-binding microarray", "form": "double-stranded DNA, one strand shown", "sample": "in vitro", "tested at": "2200 nM top", "setting": "60-bp whole probe", "with": "salmon DNA 0.4 mg/ml", "baseline": "random background probes", "reading": "higher = stronger binding", "shared flanks, not repeated": "GCCTAGCAC … GTCTTGATTCGCTTGACGCTGCTG", "chain of UniProt Q92985 (whole entry, unmodified, looked up)": "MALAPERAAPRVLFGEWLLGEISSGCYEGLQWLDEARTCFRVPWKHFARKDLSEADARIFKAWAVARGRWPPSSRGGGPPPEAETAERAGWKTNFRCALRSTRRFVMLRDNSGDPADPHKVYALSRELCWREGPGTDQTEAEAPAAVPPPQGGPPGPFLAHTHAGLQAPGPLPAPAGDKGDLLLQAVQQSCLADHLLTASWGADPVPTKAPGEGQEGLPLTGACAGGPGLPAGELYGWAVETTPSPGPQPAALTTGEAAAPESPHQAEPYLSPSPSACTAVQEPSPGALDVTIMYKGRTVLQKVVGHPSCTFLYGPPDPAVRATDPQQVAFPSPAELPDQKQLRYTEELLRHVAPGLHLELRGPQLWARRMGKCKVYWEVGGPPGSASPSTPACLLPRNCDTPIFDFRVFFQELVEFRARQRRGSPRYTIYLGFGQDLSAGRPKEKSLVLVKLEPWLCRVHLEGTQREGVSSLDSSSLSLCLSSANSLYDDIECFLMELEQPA"}
{"Oligonucleotide": "GACGATCTCAGTTTCGAGGCGTGCTAG", "fitted relative affinity [z-score]": 2.53}
{"Oligonucleotide": "GACGGTATCGGGTTTTGGGACGTGCTA", "fitted relative affinity [z-score]": 0.249}
{"Oligonucleotide": "TCAACTTCTCTTTTGGCACTGTGCTAG", "fitted relative affinity [z-score]": 1.56}
{"Oligonucleotide": "TTAGGTTTCTGTTCCGGTTAGTGCTAG", "fitted relative affinity [z-score]": 4.65}
{"Oligonucleotide": "AGTCCGTGGATTGACCAGATGTGCTAG", "fitted relative affinity [z-score]": 0.121}
{"Oligonucleotide": "TCATTTTACATTATTACACTGTGCTAG", "fitted relative affinity [z-score]": 2.39}
{"Oligonucleotide": "CATGCTCTTATATACCTGTATGTGCTA", "fitted relative affinity [z-score]": 1.2}
{"Oligonucleotide": "CCATCTCAGCCTCCCCAAGGGTGCTAG", "fitted relative affinity [z-score]": 0.0539}
{"Oligonucleotide": "TCTCTTTTGGCTTTCCTTTAGTGCTAG", "fitted relative affinity [z-score]": 3.4}
{"data": "Sample 3", "target": "CCNB3, cyclin fold, Cln2 fusion (human)", "method": "yeast growth competition, sequencing", "sample": "yeast", "setting": "weak parent motif", "baseline": "not given", "reading": "higher = stronger binding", "starting sequence": "RB1 docking peptide (human); PKPLKKLRFDIEG"}
{"Change": "K2D", "normalised enrichment score": -0.445}
{"Change": "L7G", "normalised enrichment score": 0.36}
{"Change": "I11D", "normalised enrichment score": -0.0916}
{"Change": "K2S", "normalised enrichment score": 0.161}
{"Change": "E12K", "normalised enrichment score": -0.492}
{"Change": "F9T", "normalised enrichment score": 0.214}
{"Change": "E12Y", "normalised enrichment score": 0.393}
{"Change": "P3I", "normalised enrichment score": -0.00148}
{"Change": "K5L", "normalised enrichment score": 0.165}
{"Change": "P3C", "normalised enrichment score": 0.521}
{"Change": "L4T", "normalised enrichment score": -0.226}
{"Change": "E12R", "normalised enrichment score": -0.183}
{"Change": "G13E", "normalised enrichment score": 0.0998}
{"Change": "E12T", "normalised enrichment score": 0.385}
{"Change": "G13N", "normalised enrichment score": -0.000252}
{"data": "Other studies, line by line"}
{"Molecule": "PhoQ, residues 284 288 289 292 302 303 SLANKL", "target": "PhoP, residues 12 14 15 18 19 STWGI (Escherichia coli, UniProt P23836)", "test": "Sort-seq, refers to: YFP reporter", "system": "E. coli", "setting": "PhoQ-PhoP variant library, with: 10 µM Mg2+", "scale": "baseline: high Mg2+ state, higher = stronger signaling", "measurement": "fold induction", "result": 7.15}
{"note": "Some of these lines once more (sample 1):"}
{"Oligonucleotide": "CUGUGCUACACAUCGUAUGUACCGAAUCGGGAAAAAAAGGAAAAAAAGGGAAAAAAAGGGGAAAGUAUUAUGUUACGCCGUUCGGAUCUG", "log2 enrichment": 0.0998}
{"Oligonucleotide": "CACAGACAACACGCACCCACACAGACACAGAGGGAAGGGGUUGGGAUGGGGACAGGGUGCACAGCAGGGCGGGGUAGGCCCCCAGCCCCU", "log2 enrichment": -0.529}
